{"data": "Measured values of several laboratories", "note": "Every numbered part comes from another study and shows a few of its results, in no order."}
{"data": "Sample 1", "target": "Interferon regulatory factor 7, full length, phosphomimetic (IRF7, Homo sapiens, UniProt Q92985, residues 1-503, S471D/S472D/S475D/S476D/S477D/S483D/S484D/S487D)", "method": "protein-binding microarray", "molecule type": "double-stranded DNA, one strand shown", "medium": "in vitro", "tested at": "2200 nM top", "notes": "60-bp whole probe", "added": "salmon DNA 0.4 mg/ml", "relative to": "random background probes", "reading": "higher = stronger binding", "constant ends, left off below": "GCCTAGCAC … GTCTTGATTCGCTTGACGCTGCTG", "Residues (chain)": "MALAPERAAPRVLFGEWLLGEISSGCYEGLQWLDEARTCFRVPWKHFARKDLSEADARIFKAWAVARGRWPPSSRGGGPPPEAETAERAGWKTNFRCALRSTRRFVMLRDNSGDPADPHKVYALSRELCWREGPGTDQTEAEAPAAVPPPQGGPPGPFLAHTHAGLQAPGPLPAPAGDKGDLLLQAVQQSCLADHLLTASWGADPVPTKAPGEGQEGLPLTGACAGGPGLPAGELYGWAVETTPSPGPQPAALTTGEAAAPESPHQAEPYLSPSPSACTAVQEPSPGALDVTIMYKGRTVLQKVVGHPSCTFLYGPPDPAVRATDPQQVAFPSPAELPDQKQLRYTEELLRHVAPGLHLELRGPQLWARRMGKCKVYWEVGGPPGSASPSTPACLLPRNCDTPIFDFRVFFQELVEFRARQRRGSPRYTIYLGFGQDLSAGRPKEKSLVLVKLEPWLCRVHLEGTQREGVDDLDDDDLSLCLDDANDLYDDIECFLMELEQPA"}
{"Strand": "TCAGGTCTCCTTTTCCTTTAGTGCTAG", "fitted relative affinity [z-score]": 2.33}
{"Strand": "GTAGGTTTCGACACTGGGTTAGTGCTA", "fitted relative affinity [z-score]": 2.22}
{"Strand": "TCATTATTTACTCTCTAACTGTGCTAG", "fitted relative affinity [z-score]": 1.29}
{"Strand": "GACGGTCTCCTACTGCAGACGTGCTAG", "fitted relative affinity [z-score]": 0.358}
{"Strand": "TCAGGTTCAGATATAGGACTGTGCTAG", "fitted relative affinity [z-score]": 0.289}
{"Strand": "GACGATCTCAGTCTCGTGACGTGCTAG", "fitted relative affinity [z-score]": 0.449}
{"Strand": "GACGGTCACCTTATCCTGACGTGCTAG", "fitted relative affinity [z-score]": 0.644}
{"Strand": "GACGGTTTCGACTTTCGGGAGGTGCTA", "fitted relative affinity [z-score]": 7.87}
{"data": "Sample 2", "target": "Histone acetyltransferase KAT6A, winged helix 1, GST fusion (KAT6A, Homo sapiens, UniProt Q92794, residues 1-85)", "method": "protein binding microarray", "molecule type": "double-stranded DNA, one strand shown", "medium": "in vitro", "tested at": "not given", "notes": "8-mer, flanks averaged, mean of 2 arrays, mostly near background", "relative to": "not given", "reading": "higher = stronger binding", "Construct (chain)": "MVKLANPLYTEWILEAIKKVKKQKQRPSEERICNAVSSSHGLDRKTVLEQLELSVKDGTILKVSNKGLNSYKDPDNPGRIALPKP"}
{"Strand": "ACGACATG", "E-score": -0.275}
{"Strand": "GAGTGAGC", "E-score": -0.171}
{"Strand": "AGCCCATA", "E-score": -0.154}
{"Strand": "CGTTACGC", "E-score": 0.355}
{"Strand": "AAATATCC", "E-score": -0.0784}
{"Strand": "AATCGGGG", "E-score": 0.107}
{"Strand": "ATCCGGAT", "E-score": -0.161}
{"Strand": "CGGGGACC", "E-score": 0.29}
{"data": "Sample 3", "target": "Sal-like protein 4, full length isoform A (SALL4, Homo sapiens, UniProt Q9UJQ4, residues 1-1053)", "method": "universal PBM", "molecule type": "double-stranded DNA, one strand shown", "medium": "in vitro", "tested at": "600 nM", "notes": "8-mer, flanks averaged, mean of replicates", "reading": "higher = stronger binding", "sequence of UniProt Q9UJQ4 (whole entry, looked up)": "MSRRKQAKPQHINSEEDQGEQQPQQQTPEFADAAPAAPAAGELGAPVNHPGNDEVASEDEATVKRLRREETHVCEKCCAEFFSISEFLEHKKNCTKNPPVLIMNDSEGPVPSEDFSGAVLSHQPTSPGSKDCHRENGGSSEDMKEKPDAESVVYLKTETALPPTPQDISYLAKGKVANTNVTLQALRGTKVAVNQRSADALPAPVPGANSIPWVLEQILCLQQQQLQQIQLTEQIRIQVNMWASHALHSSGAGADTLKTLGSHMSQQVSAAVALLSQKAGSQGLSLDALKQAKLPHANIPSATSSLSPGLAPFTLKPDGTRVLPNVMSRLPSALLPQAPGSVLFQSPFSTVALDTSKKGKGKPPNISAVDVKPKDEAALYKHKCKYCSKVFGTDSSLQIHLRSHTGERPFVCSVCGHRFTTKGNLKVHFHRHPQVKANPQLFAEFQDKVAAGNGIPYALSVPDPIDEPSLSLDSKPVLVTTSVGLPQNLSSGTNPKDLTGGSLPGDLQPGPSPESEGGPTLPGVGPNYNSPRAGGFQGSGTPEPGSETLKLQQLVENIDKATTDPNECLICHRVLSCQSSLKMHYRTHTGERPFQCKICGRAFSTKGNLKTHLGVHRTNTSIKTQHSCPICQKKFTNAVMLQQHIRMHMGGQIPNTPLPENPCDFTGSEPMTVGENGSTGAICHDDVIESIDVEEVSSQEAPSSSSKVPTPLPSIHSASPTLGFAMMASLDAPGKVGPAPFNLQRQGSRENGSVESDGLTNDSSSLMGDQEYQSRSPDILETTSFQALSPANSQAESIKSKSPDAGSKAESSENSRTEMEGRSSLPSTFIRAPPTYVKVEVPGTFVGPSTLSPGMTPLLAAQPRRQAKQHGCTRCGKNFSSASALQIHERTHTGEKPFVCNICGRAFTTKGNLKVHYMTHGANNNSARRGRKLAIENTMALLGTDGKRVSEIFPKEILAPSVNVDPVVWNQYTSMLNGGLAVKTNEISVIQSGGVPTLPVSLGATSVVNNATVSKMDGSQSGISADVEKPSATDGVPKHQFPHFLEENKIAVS"}
{"Strand": "AGCCCTTC", "E-score": -0.215}
{"Strand": "ATCCGGAT", "E-score": -0.262}
{"Strand": "AAACTGCG", "E-score": -0.109}
{"Strand": "AGAGCTAA", "E-score": 0.0228}
{"Strand": "ACAACTAA", "E-score": 0.215}
{"Strand": "CAACGATC", "E-score": "-3.5e-05"}
{"Strand": "AATGCTGT", "E-score": 0.116}
{"Strand": "CGGCCCCA", "E-score": -0.362}
{"data": "Sample 4", "target": "Replicase polyprotein 1ab, main protease (rep, Severe acute respiratory syndrome coronavirus 2, UniProt P0DTD1)", "observed": "enzyme activity", "mode": "inhibitor", "tested at": "20 µM", "notes": "hit confirmation, no DTT"}
{"SMILES": "O=c1cc(-c2ccc(O)cc2)oc2cc(O)cc(O)c12", "inhibition [%]": 97.5}
{"SMILES": "CCN(CC)C(=S)SSC(=S)N(CC)CC", "inhibition [%]": 99.9}
{"SMILES": "CCOC(=S)SSC(=S)OCC", "inhibition [%]": 94.6}
{"data": "Sample 5", "target": "Replicase polyprotein 1ab, polymerase (rep, Severe acute respiratory syndrome coronavirus 2, UniProt P0DTD1)", "observed": "enzyme activity", "mode": "inhibitor", "tested at": "20 µM"}
{"Compound": "c1ccc2c(c1)CN1CCCC1=N2", "inhibition [%]": -0.72}
{"Compound": "c1ccc2c(c1)OCC(C1=NCCN1)O2 (centres unmarked)", "inhibition [%]": 5.53}
{"Compound": "CN1[C@@H](CC(=O)c2ccccc2)CCC[C@H]1C[C@H](O)c1ccccc1", "inhibition [%]": 0.13}
{"Compound": "O=C1CC[C@@]2(O)[C@H]3Cc4ccc(O)c5c4[C@@]2(CCN3CC2CC2)[C@H]1O5", "inhibition [%]": -0.35}
{"Compound": "N#C/C(=C1/SC[C@@H](c2ccc(Cl)cc2Cl)S1)n1ccnc1", "inhibition [%]": -6.32}
{"Compound": "COc1cc2c(N3CCN(C(=O)Nc4ccc(OC(C)C)cc4)CC3)ncnc2cc1OCCCN1CCCCC1", "inhibition [%]": 3.08}
{"Compound": "CCc1cccc(CC)c1NC1=NCCN1", "inhibition [%]": 0.27}
{"Compound": "CC(CCc1ccc(O)cc1)NCC(O)c1ccc(O)cc1 (centres unmarked)", "inhibition [%]": -3.11}
{"Compound": "CN(C)c1ccc(C(=C2C=CC(=[N+](C)C)C=C2)c2ccc(N(C)C)cc2)cc1", "inhibition [%]": 20.4}
{"Compound": "CC(=O)N(CC(O)CO)c1c(I)c(C(=O)NCCO)c(I)c(C(=O)NCC(O)CO)c1I (centres unmarked)", "inhibition [%]": -1.52}
{"Compound": "CNc1ccc([N+](=O)[O-])cc1-n1cnc(-c2ccc(C(F)(F)F)cc2)c1", "inhibition [%]": 1.07}
{"Compound": "Nc1cccc2c(=O)[nH][nH]c(=O)c12", "inhibition [%]": 0.25}
{"Compound": "COc1ccc(-n2[nH]c3c4c(ncc3c2=O)CCCCC4)cc1", "inhibition [%]": 1.01}
{"Compound": "COc1ccc(-c2ccc3cc(C(=O)O)ccc3c2)cc1[C@]12C[C@H]3C[C@H](C[C@H](C3)C1)C2", "inhibition [%]": 29.6}
{"Compound": "CC1Nc2ccc(Cl)cc2S(=O)(=O)N1 (centres unmarked)", "inhibition [%]": 3.75}
{"Compound": "O=C(NCCN1CCC2(CC1)C(=O)NCN2c1cccc(F)c1)c1ccc2ccccc2c1", "inhibition [%]": 1.16}
{"Compound": "Nc1nc2c(cnn2CCc2ccccc2)c2nc(-c3ccco3)nn12", "inhibition [%]": 2.43}
{"Compound": "C=CC(=O)Nc1cccc(Nc2nc(Nc3ccc(OCCOC)cc3)ncc2F)c1", "inhibition [%]": 1.49}
{"Compound": "O=C1Nc2ccccc2C2(CCN(CCc3ccc(C(F)(F)F)cc3)CC2)O1", "inhibition [%]": -7.63}
{"Compound": "CCCCCOc1c(OC)ccc2cc(C(=O)NCc3ccc4c(c3)OCO4)c(=O)[nH]c12", "inhibition [%]": -1.87}
{"Compound": "COc1ccc(Cl)cc1C(=O)NCCc1ccc(S(=O)(=O)NC(=O)NC2CCCCC2)cc1", "inhibition [%]": -1.26}
{"Compound": "O=C1C=C2C=C[C@@H]3C[C@@]2(O1)[C@H]1CCCCN31", "inhibition [%]": -4.93}
{"Compound": "O=C(Nc1ccc(S(=O)(=O)C(F)(F)F)cc1)C1=CCN(c2ncccc2C(F)(F)F)CC1", "inhibition [%]": 1.76}
{"Compound": "CC(C)(C)NCC(O)c1cc(Br)no1 (centres unmarked)", "inhibition [%]": 0.51}
{"Compound": "CO/N=C(\\C(=O)N[C@@H]1C(=O)N2C(C(=O)O)=C(CSc3nc(C)c(CC(=O)O)s3)CS[C@H]12)c1csc(N)n1", "inhibition [%]": 15.8}
{"data": "Sample 6", "cell line": "HEK-293T/ACE2", "observed": "pseudovirus infection", "organism": "VSV pseudotyped with SARS-CoV-2 spike", "tested at": "10 µM", "time": "16 h", "relative to": "vehicle-treated"}
{"SMILES": "CCCCC1=NC2(CCCC2)C(=O)N1Cc1ccc(-c2ccccc2-c2nnn[nH]2)cc1", "GFP-positive cells": "62.5%"}
{"SMILES": "CC(S)C(=O)NCC(=O)O (centres unmarked)", "GFP-positive cells": "77.5%"}
{"SMILES": "Fc1ccc([C@@H]2CCNC[C@H]2COc2ccc3c(c2)OCO3)cc1", "GFP-positive cells": "21%"}
{"SMILES": "CCCCC[C@H](O)/C=C/[C@H]1[C@H](O)CC(=O)[C@@H]1CCCCCCC(=O)O", "GFP-positive cells": "68.7%"}
{"note": "Repeated from above (sample 6):"}
{"SMILES": "CCCCC1=NC2(CCCC2)C(=O)N1Cc1ccc(-c2ccccc2-c2nnn[nH]2)cc1", "GFP-positive cells": "62.5%"}
{"SMILES": "CC(S)C(=O)NCC(=O)O (centres unmarked)", "GFP-positive cells": "77.5%"}
{"SMILES": "Fc1ccc([C@@H]2CCNC[C@H]2COc2ccc3c(c2)OCO3)cc1", "GFP-positive cells": "21%"}
{"SMILES": "CCCCC[C@H](O)/C=C/[C@H]1[C@H](O)CC(=O)[C@@H]1CCCCCCC(=O)O", "GFP-positive cells": "68.7%"}
